Experimental data gathered from unrelated publications.
Each line is one published result; not all experiments were run side by side.

For `CC(C)CC(=O)OC[C@H]1O[C@@](C#N)(c2ccc3c(N)ncnn23)[C@H](O)[C@@H]1O`, the inhibition was 3% (KATP potassium channel human; radioligand binding; 20 µM).
`O=C(Nc1cccnn1)N1CCN([C@@H]2CCOc3cc(C(F)(F)F)ccc32)CC1` has an inhibition of 52% (GABA-A receptor chloride channel; binding; 20 µM).
`c1ccc(C(NCCNC(c2ccccc2)c2ccccc2)c2ccccc2)cc1` has an inhibition of -20% (nicotinic acetylcholine receptor, human; binding; 10 µM, Eurofins selectivity panel).
`CSc1cccc(CC(=O)N[C@H]2CCOC2=O)c1` gave an inhibition of 71% (ExpR2 (Pectobacterium carotovorum); cellulase activity, antagonist; Pectobacterium carotovorum, single-ExpR2 strain; 5 µM, 4 h, together with: OHHL 5 µM).
With `C[C@H](CCC(=O)O)[C@H]1CC[C@H]2[C@@H]3CC[C@@H]4C[C@H](O)CC[C@]4(C)[C@H]3CC[C@]12C` the inhibition was over 50% (human UGT; glucuronidation; human liver microsomes; 200 µM, 60 min, together with: FBI-COOH 50 µM).
`CCCCCCCCCC(=O)N[C@H]1CCOC1=O` gave an inhibition of 76% (ExpR2 (Pectobacterium carotovorum); cellulase activity, antagonist; Pectobacterium carotovorum, single-ExpR2 strain; 5 µM, 4 h, together with: OHHL 5 µM).
The inhibition of `COc1ccc(N2C(=O)N(c3c(C)cccc3Cl)Cc3cnc(Nc4ccc(C5CCN(C)CC5)cc4OC)nc32)nc1` is reported as 97% (LYN B, human; kinase activity; 0.5 µM).
`O=C(Cc1ccc(Cl)cc1)N[C@H]1CCOC1=O` gave an inhibition of 48% (ExpR2 (Pectobacterium carotovorum); cellulase activity, antagonist; Pectobacterium carotovorum, single-ExpR2 strain; 5 µM, 4 h, together with: OHHL 5 µM).
With `CC(=O)N1CCN(c2ccc(OCC3COC(Cn4ccnc4)(c4ccc(Cl)cc4Cl)O3)cc2)CC1` (stereo not drawn) the inhibition was over 50% (human UGT; glucuronidation; human liver microsomes; 200 µM, 60 min, together with: FBI-COOH 50 µM).

Repeated from above:
The inhibition of `COc1ccc(N2C(=O)N(c3c(C)cccc3Cl)Cc3cnc(Nc4ccc(C5CCN(C)CC5)cc4OC)nc32)nc1` is reported as 97% (LYN B, human; kinase activity; 0.5 µM).
